Experimental data collected from several papers.
Each line is one published result; not all experiments were run side by side. Values joined by “and” are separate records of one study, mostly repeats; a detail may differ. ± marks the error that the study gave.

`O=C(N/N=C/c1cc[n+](CC2CC2)c2ccccc12)N/N=C/c1cc[n+](CC2CC2)c2ccccc12` has a ΔTm of 3.7 ± 0.9 °C (MYC parallel G4 DNA; FRET melting; 1 µM, DNA 0.2 µM).
`C=CC(=O)N1[C@@H](c2ccc3c(c2)OCO3)c2[nH]c3ccccc3c2C[C@H]1C(=O)N1CCN(C)CC1` gave a relative co-enrichment of 75% (human cyclin E1 wild type-3xFLAG:CDK2; co-IP with TMT proteomics, item: KPNB1; concentration not given, Q14974; reference: wild type DMSO).
For `O=C(N/N=C/c1cc[n+](CC2CC2)c2ccccc12)C(=O)N/N=C/c1cc[n+](CC2CC2)c2ccccc12`, the ΔTm was 3.1 ± 0.7 °C (MYC parallel G4 DNA; FRET melting; 1 µM, DNA 0.2 µM).
`C#CCN1CCN(c2nc(N3CCC(CCOc4cc(-c5scnc5C)ccc4CNC(=O)[C@@H]4C[C@@H](O)CN4C(=O)[C@@H](NC(=O)C4(F)CC4)C(C)(C)C)CC3)nc(N3CCN(C(=O)C4CC4)C3)n2)CC1=O` gave a cooperativity alpha of 6.4 (VHL-elongin C-elongin B and BRD9; SPR; immobilized VHL-elongin C-elongin B; reference: binary KD over ternary KD).
`C=CC(=O)Nc1cccc(Cn2ncc3cnc(Nc4cnn(CCOC)c4)nc32)c1` has a binding of 100% (human PFTAIRE2; KINOMEscan; 100 nM; reference: control).
For `C[n+]1cc(/C=N/NC(=O)c2ccc3ccc4ccc(C(=O)N/N=C/c5cc6ccccc6[n+](C)c5)nc4c3n2)cc2ccccc21`, the ΔTm was 9.2 ± 0.8 °C (MYC parallel G4 DNA; FRET melting; 1 µM, DNA 0.2 µM).
`Nc1ncc2c(n1)-c1c([nH]c3ccc(C4=CCOCC4)cc13)CCC2` has a remaining binding of 100% (FLT3 ITD; scanMAX; 1 µM; reference: control).
`c1ccc(-c2n[nH]cc2-c2ccnc3ccccc23)nc1`: “log2 fold change” 0.24 (RIO2 (Candida albicans); kinase binding, MIB/MS competition; Candida albicans lysate; 10 µM; reference: DMSO).
For `Fc1ccc(Nc2nc(NC3CCCCC3)c3cc(C(F)(F)F)ccc3n2)cc1F`, the pIC50 was 7 (β2AR/β1AR ECL2/3 chimera; β-arrestin2 recruitment, antagonist, BRET; together with: isoprenaline 1 µM).
With `O=C(N/N=C/c1ccc2c(ccc[n+]2Cc2ccccc2)c1)c1cccc(C(=O)N/N=C/c2ccc3c(ccc[n+]3Cc3ccccc3)c2)n1` the ΔTm was 11.8 ± 0.5 °C (MYC parallel G4 DNA; FRET melting; 1 µM, DNA 0.2 µM).
With `Nc1ncc(-c2cc(-c3cnn(CC(F)(F)F)c3)ncc2F)nc1C(=O)NC1CNCC(F)C1` (stereo not shown) the remaining binding was 100% (EPHA5; KINOMEscan; 1 µM; reference: DMSO control).
The ΔTm of `Cc1cn(CC(=O)N(CCNC(=O)CN(CCNC(=O)CN(CCNC(=O)CN(CCNC(=O)CN(CCNC(=O)CN(CCNC(=O)CN(CCNC(=O)CN(CCN)C(=O)Cn2cnc3c(=O)[nH]c(N)nc32)C(=O)Cn2cnc3c(N)ncnc32)C(=O)Cn2cc(C)c(=O)[nH]c2=O)C(=O)Cn2cnc3c(=O)[nH]c(N)nc32)C(=O)Cn2cc(C)c(=O)[nH]c2=O)C(=O)Cn2cnc3c(=O)[nH]c(N)nc32)C(=O)Cn2cnc3c(N)ncnc32)CC(=O)NCCN(CC(=O)NCCOCCOCC(N)=O)C(=O)Cn2cnc3c(N)ncnc32)c(=O)[nH]c1=O` is reported as -10.3 °C (mismatched RNA TG; duplex formation, UV melting; reference: complementary RNA).
With `C[n+]1ccc(/C=N/NC(=O)c2ccc3ccc(C(=O)N/N=C/c4cc[n+](C)c5ccccc45)nc3n2)c2ccccc21` the ΔTm was 0.4 ± 0.3 °C (hp2 hairpin duplex DNA; FRET melting; 1 µM, together with: ds26 10 µM).
The cooperativity alpha of `CC(=O)NCCN(c1nc(N2CC(Oc3ccccc3)C2)nc(N2CC3C(CCOc4cc(-c5scnc5C)ccc4CNC(=O)[C@@H]4C[C@@H](O)CN4C(=O)[C@@H](NC(=O)C4(F)CC4)C(C)(C)C)C3C2)n1)C(C)C` (stereo partly shown) is reported as 527 (VHL-elongin C-elongin B and BRD9; SPR; immobilized VHL-elongin C-elongin B; reference: binary KD over ternary KD).
The inhibition of `C=CC(=O)Nc1cc(-c2nn(C3CCN(CCNC(=O)[C@H](C)CCC45CC6CC(CC(C6)C4)C5)CC3)c3ncnc(N)c23)ccc1Oc1ccccc1` is reported as 13.1% (MAP2K1 and MAP2K2; KiNativ; 2 µM).
`CCCCCCc1cccc(C(O)CC(CO)NC(=O)CCCCCCCCCCNC(C)=O)c1` (stereo not shown) gave a sphingomyelin level of 597000 pmol and 595000 pmol and 469000 pmol (CERT; HPLC-MS/MS, item: SM C16; HeLa; 1 µM, 24 h).
For `CCCCCC(O)/C=C/C=O` (stereo not shown), the IC50 was 96 µM and 87 µM and 98 µM and 76 µM and 124 µM and 68 µM and 102 µM (proteome cysteines; IA-probe labelling, competitive isoTOP-ABPP; MDA-MB-231 proteome).
For `CC(=O)NCCN(CCC(=O)NCCN(CCC(=O)NCCN(CCC(=O)NCCC(N)=O)C(=O)[C@@H](N)Cc1ccccc1)C(=O)[C@@H](N)CCCNC(=N)N)C(=O)[C@@H](N)CCCNC(=N)N`, the melting temperature was 60.1 ± 0.2 °C (HIV-1 TAR RNA; RNA thermal stability, UV melting; 1 µM, pH 7.5, together with: 1 µM TAR RNA).
For `Fc1ccc(Nc2nc(NC3CCCCC3)c3cc(Br)ccc3n2)cc1F`, the maximal inhibition was -2.8% (β2AR/β1AR ECL2/3 chimera; β-arrestin2 recruitment, antagonist, BRET; reference: isoprenaline maximal response).
`O=C(Nc1ccccc1)c1ccc(Nc2nnc(-c3ccc(O)cc3)c3ccccc23)cc1` has a licking time of 0 s (TRPV1; nocifensive response; mouse; intraplantar, 3 µg).
The binding constant of `CCNC(=S)NN=Cc1c2ccccc2cc2ccccc12.Cc1ccc(C(C)C)cc1.[Cl-].[Cl-].[Ru+2]` is reported as 282000 M⁻¹ (calf thymus DNA; ethidium bromide displacement; 308 K).
With `Cc1ncsc1-c1ccc(CNC(=O)[C@@H]2C[C@@H](O)CN2C(=O)[C@@H](NC(=O)C2(F)CC2)C(C)(C)C)c(OCCC2CN(c3nc(NCC(C)(C)C4(O)CCOC4)nc(N4CCC[C@H]4Cn4ccnn4)n3)C2)c1` (stereo partly shown) the cooperativity alpha was 5 (VHL-elongin C-elongin B and BRD9; SPR; immobilized VHL-elongin C-elongin B; reference: binary KD over ternary KD).
`C[n+]1cc(/C=N/NC(=O)c2cc(C(=O)N/N=C/c3cc4ccccc4[n+](C)c3)ncn2)cc2ccccc21` gave a ΔTm of 4.6 ± 0.1 °C (MYC parallel G4 DNA; FRET melting; 1 µM, DNA 0.2 µM).
For `CCCCCCCCCCCC(=O)N[C@@H](CO)C[C@@H](O)c1cccc(CCCCCC)c1`, the sphingomyelin level was 128000 pmol/sample and 89200 pmol/sample and 98000 pmol/sample (CERT; HPLC-MS/MS, item: SM 24:1; HeLa; 1 µM, 24 h).
`O=C(N/N=C/c1ccc2c(ccc[n+]2Cc2ccccc2)c1)c1ccc2ccc3ccc(C(=O)N/N=C/c4ccc5c(ccc[n+]5Cc5ccccc5)c4)nc3c2n1` gave a ΔTm of 15.4 ± 1.2 °C (MYC parallel G4 DNA; FRET melting; 1 µM, DNA 0.2 µM, together with: duplex DNA competitor 10 µM).
For `CCCCCCc1cccc([C@H](O)C[C@H](CO)NC(=O)CCCCCCCCCCBr)c1`, the sphingomyelin level was 177000 pmol/sample and 110000 pmol/sample and 171000 pmol/sample (CERT; HPLC-MS/MS, item: SM 24:1; HeLa; 1 µM, 24 h).
`C[n+]1ccc(/C=N/NC(=O)C(=O)N/N=C/c2cc[n+](C)c3ccccc23)c2ccccc21` gave a ΔTm of 1.2 ± 0.4 °C (hp2 hairpin duplex DNA; FRET melting; 1 µM).
`Cc1ncc(CNc2nc(N3CC(CCOc4cc(-c5scnc5C)ccc4CNC(=O)[C@@H]4C[C@@H](O)CN4C(=O)[C@@H](NC(=O)C4(F)CC4)C(C)(C)C)C3)nc(N3CCC[C@H]3Cn3ccnn3)n2)c(N)n1` has a cooperativity alpha of 2.9 (VHL-elongin C-elongin B and BRD9; SPR; immobilized VHL-elongin C-elongin B; reference: binary KD over ternary KD).

Excerpt of the above:
For `C[n+]1cc(/C=N/NC(=O)c2ccc3ccc4ccc(C(=O)N/N=C/c5cc6ccccc6[n+](C)c5)nc4c3n2)cc2ccccc21`, the ΔTm was 9.2 ± 0.8 °C (MYC parallel G4 DNA; FRET melting; 1 µM, DNA 0.2 µM).
`Cc1ncc(CNc2nc(N3CC(CCOc4cc(-c5scnc5C)ccc4CNC(=O)[C@@H]4C[C@@H](O)CN4C(=O)[C@@H](NC(=O)C4(F)CC4)C(C)(C)C)C3)nc(N3CCC[C@H]3Cn3ccnn3)n2)c(N)n1` has a cooperativity alpha of 2.9 (VHL-elongin C-elongin B and BRD9; SPR; immobilized VHL-elongin C-elongin B; reference: binary KD over ternary KD).
`O=C(Nc1ccccc1)c1ccc(Nc2nnc(-c3ccc(O)cc3)c3ccccc23)cc1` has a licking time of 0 s (TRPV1; nocifensive response; mouse; intraplantar, 3 µg).
`C[n+]1cc(/C=N/NC(=O)c2cc(C(=O)N/N=C/c3cc4ccccc4[n+](C)c3)ncn2)cc2ccccc21` gave a ΔTm of 4.6 ± 0.1 °C (MYC parallel G4 DNA; FRET melting; 1 µM, DNA 0.2 µM).
